Assay results from different studies.
Numbered parts are unrelated; each lists some results of a single study.

Study 1
Target: Centromere-binding protein 1, full length, His-tagged (CBF1, Saccharomyces cerevisiae, UniProt P17106, residues 1-351)
Sequence of UniProt P17106 (whole entry, looked up): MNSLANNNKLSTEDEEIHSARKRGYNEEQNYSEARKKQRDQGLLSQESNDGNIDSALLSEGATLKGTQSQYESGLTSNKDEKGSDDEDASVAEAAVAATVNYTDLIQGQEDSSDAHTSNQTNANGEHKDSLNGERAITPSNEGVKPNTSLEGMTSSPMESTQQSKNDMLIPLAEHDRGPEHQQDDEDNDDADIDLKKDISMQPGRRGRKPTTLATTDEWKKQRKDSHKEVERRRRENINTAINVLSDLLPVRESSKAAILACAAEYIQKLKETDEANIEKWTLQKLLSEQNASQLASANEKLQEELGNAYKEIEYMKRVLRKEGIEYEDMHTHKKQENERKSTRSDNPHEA
Technique: competition protein-binding microarray
Molecule type: double-stranded DNA, one strand shown
Medium: in vitro
Concentration: 2 µM
Notes: whole 60-bp probe, lowest competitor level
Added: Pho4 competitor, 0.05 µM
Direction: higher = stronger binding
Measurement: fluorescence intensity
Constant ends, left off below: … GTCTTGATTCGCTTGACGCTGCTG
TGCGCAACAACTTGTGTGGTGGGTGTATGTCTAGAA: 70.7 a.u.
GCACTTTCAGGTACCAGCGTGCTAAAGCCATTTTCG: 74.7 a.u.
CTTCCCAGGCCCACCAACGTGCGATCCCCGCTATGT: 59.6 a.u.
AGATAGAAGATCAAATCCGTGCCAGAACCGCCCTGC: 66.5 a.u.
CGCCAAAGTTCTTGCCTCGTGGTCGTTGGCCTTCGC: 107 a.u.
ACTGCCATGGGTTTTGGCGTGGGTATGTTCACCTCA: 61.8 a.u.
GTTATAAAAATATGTCAGGTGATTTTTTTTTCTCTT: 2210 a.u.
TTAGAGAATGAAAAGCACGTGGGTACTTCGATTTTG: 1440 a.u.
GTCTTGTCTCATTGTAATGTGGGTGTCCCCACTTCA: 81.8 a.u.
TGCGCAACAACTTGACTAGTGGGTGTATGTCTAGAA: 66.2 a.u.
ATATTTCCACTTACCCATGTGTTTATAATCGCGGGA: 124 a.u.
CTAACGAAGGTTTGGCCGGTGGGTGACAAGCCAAGT: 71.4 a.u.
TTGTACATTTTCCATCACGTGCAAAATTTGTTTCAA: 7620 a.u.
CGGGGTTAAGTTTTTCACGTGCGGTGCTTGCAGCAG: 394 a.u.
ACAGATAAAGTCTAGTACGTGTGGAGGTTAATGCGC: 67.5 a.u.
ATAGAACGCAGAGCCCACGTGTGCCTGGCACTTGGC: 462 a.u.

Study 2
Target: Sal-like protein 4, full length isoform B (SALL4, Homo sapiens, UniProt Q9UJQ4-2, residues 1-616)
Technique: universal PBM
Molecule type: double-stranded DNA, one strand shown
Medium: in vitro
Concentration: not given
Notes: 8-mer, flanks averaged, mean of replicates
Direction: higher = stronger binding
Measurement: E-score
CTCGTCGC: -0.246
CGTCCAAC: 0.0198
AAGGTAAA: 0.269
ATGCACAG: -0.037
GTAGCCTA: 0.11
GCGCGGCC: -0.311
AGCTAGTG: -0.226
ATATGCTG: 0.146
GTCCGTGA: -0.179
AGACATTC: 0.188
ACCTGTTC: -0.0203
TGCCCGAA: -0.0388
AAGTGCGC: -0.201
CAACTTGA: 0.12
ATCGCTTC: 0.0518
AAACCGTT: -0.0961
CCCAGTTC: -0.206
TATCGAAA: 0.229
CATAAATC: 0.346
AAGAAGCC: 0.00703
CCAATAAC: 0.206
GATCCCTA: -0.12
TCCACCGA: -0.19
CCATTCAC: -0.0442
ACGTCTTA: 0.136

Study 3
Target: Ras GTPase-activating protein-binding protein 1, full length (G3BP1, Homo sapiens, UniProt Q13283)
Sequence of UniProt Q13283 (whole entry, looked up): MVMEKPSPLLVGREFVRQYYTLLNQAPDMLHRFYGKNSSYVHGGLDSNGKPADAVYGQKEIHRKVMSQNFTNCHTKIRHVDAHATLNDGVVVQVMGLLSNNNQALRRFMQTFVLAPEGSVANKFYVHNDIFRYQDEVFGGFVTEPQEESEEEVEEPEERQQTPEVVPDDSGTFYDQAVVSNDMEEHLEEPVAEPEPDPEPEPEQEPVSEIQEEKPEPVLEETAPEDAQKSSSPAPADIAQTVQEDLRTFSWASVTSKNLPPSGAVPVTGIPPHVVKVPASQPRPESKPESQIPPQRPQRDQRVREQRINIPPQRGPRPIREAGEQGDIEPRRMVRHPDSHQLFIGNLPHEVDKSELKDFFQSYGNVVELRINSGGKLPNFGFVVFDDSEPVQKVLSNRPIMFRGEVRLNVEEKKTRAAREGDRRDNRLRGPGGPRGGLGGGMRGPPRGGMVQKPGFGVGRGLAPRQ
Technique: RNA Bind-n-Seq
Molecule type: RNA
Medium: in vitro
Concentration: 200 nM
Notes: whole 134-nt RNA, ends assumed
Added: 150 mM LiCl
Relative to: input library
Direction: higher = stronger binding
Measurement: log2 enrichment
Each molecule: 7-deaza-guanosine replaces G
Constant ends, left off below: GGGAGUUCUACAGUCCGACGAUC … UGGAAUUCUCGGGUGUCAAGG
AAGUCCUGUGCUACACAUCGUAUGUACCGAAUCGGAAAGGUUUUUUUGGUUUUUGGAAAGUAUUAUGUUACGCCGUUCGGAUCUGCACUU: -2.51
CAAAAACAACACGCACCCACACAGACACAGAGGGAAGGGGUUGGGAUGGGGACAGGGUGCACAGCAGGGCGGGGUAGGACCCCAGCCCCU: 0.588
UGGGAGGUGGAUUUUGUUUAUUUUUCUAGCUCAUUUCCAGGGGUGGGAAUUUUUUUUUAAUAUGUGUCAUGAAUAAAGUUGUUUUUGAAA: -0.338
CAAGUCCUGUGCUACACAUCGUAUGUACCGAAUCGGCCCGGGGCCCGGGCCCGGGAAAGUAUUAUGUUACGCCGUUCGGAUCUGCACUUC: -1.25
AGUCCUGUGCUACACAUCGUAUGUACCGAAUCGGGCCCCCGGGCCCCCGGCCCCCGGAAAGUAUUAUGUUACGCCGUUCGGAUCUGCACU: -0.116
UCCUGUGCUACACAUCGUAUGUACCGAAUCGGGGAAAAAGGGGAAAAAGGGAAAAAGGGGAAAGUAUUAUGUUACGCCGUUCGGAUCUGC: -0.106
UCCUGUGCUACACAUCGUAUGUACCGAAUCGGUUUUUUGGUUUUUUGGGUUUUUUGGGGAAAGUAUUAUGUUACGCCGUUCGGAUCUGCA: -0.547
CUCAAGUCCUGUGCUACACAUCGUAUGUACCGAAUCGGGGCGGGGCGGGGCGGGAAAGUAUUAUGUUACGCCGUUCGGAUCUGCACUUCC: -0.21
UCCUGUGCUACACAUCGUAUGUACCGAAUCGGGUUUUUUUGGGAAAAAGGGAAAAAGGGAAAGUAUUAUGUUACGCCGUUCGGAUCUGCA: -1.27
UCAAGUCCUGUGCUACACAUCGUAUGUACCGAAUCGGGUGGGAGGGAAAAAGGGAAAGUAUUAUGUUACGCCGUUCGGAUCUGCACUUCC: -0.232
CACAGACAACACGCACCCACACAGACUCAGAGGGAAGGGGUUGGGAUGGGGACAGGGUGCACAGCAGGGCGGGGUAGGACCCCAGCCCCU: 0.135

Study 4
Target: Histone acetyltransferase KAT6A, both winged helices, GST fusion (KAT6A, Homo sapiens, UniProt Q92794, residues 1-181)
Technique: protein binding microarray
Molecule type: double-stranded DNA, one strand shown
Medium: in vitro
Concentration: not given
Notes: 8-mer, flanks averaged, mean of 2 arrays, mostly near background
Relative to: not given
Direction: higher = stronger binding
Measurement: E-score
Construct (chain): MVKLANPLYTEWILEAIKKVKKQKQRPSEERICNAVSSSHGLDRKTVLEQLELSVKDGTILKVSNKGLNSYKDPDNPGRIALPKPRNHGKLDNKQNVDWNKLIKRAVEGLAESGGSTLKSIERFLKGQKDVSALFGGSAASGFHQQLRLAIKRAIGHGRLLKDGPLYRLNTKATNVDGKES
GCATCAGC: 0.0298
CCAGAAAG: 0.00049
CTCCCACC: -0.177
ACCAGAGC: -0.116
CTTCTCGA: -0.143
TCCGGCCA: 0.0671
GGCTACAA: -0.0168
CTATGAGC: -0.0969
AATTGGAT: -0.0624
CAAGCTGG: -0.0794
AGAATTTC: 0.0107
AGACAGAT: -0.156
AGGTGCAT: -0.207
CAGTCGGG: 0.138
AATTCGTC: -0.014
GGGGATAC: -0.0238
AGCACTGA: -0.243
CTGTTAGC: -0.128
AGTCCAAG: -0.184
ACAAATTG: -0.0414
AGTCACGC: 0.0163
AGAGGCTA: -0.241
GGAAGCGA: 0.0357
ACGGGCCT: 0.234
GTTCCAAC: 0.00877

Study 5
Target: Interferon regulatory factor 3, full length, phosphomimetic (IRF3, Homo sapiens, UniProt Q14653, residues 1-427, S386D/S396D/S398D/S402D/T404D/S405D)
Technique: protein-binding microarray
Molecule type: double-stranded DNA, one strand shown
Medium: in vitro
Concentration: 2540 nM top
Notes: 60-bp whole probe
Added: salmon DNA 0.4 mg/ml
Relative to: random background probes
Direction: higher = stronger binding
Measurement: fitted relative affinity
Constant ends, left off below: GCCTAGCAC … GTCTTGATTCGCTTGACGCTGCTG
Construct (chain): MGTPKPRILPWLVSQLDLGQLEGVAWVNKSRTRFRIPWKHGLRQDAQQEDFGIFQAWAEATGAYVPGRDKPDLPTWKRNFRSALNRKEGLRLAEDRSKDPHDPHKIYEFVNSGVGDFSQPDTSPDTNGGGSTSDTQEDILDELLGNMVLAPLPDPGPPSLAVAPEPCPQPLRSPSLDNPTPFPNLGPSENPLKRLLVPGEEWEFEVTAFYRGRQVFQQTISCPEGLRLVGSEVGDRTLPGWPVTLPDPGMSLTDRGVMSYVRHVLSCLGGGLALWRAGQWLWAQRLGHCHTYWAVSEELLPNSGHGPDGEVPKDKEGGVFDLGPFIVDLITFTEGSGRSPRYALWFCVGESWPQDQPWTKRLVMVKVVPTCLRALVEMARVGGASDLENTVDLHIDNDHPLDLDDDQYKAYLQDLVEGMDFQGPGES
GACGGTTTCGGACTGGGAACGTGCTAG: 4.51 z-score
GACGATCTCAGTTTCGAGCCGTGCTAG: 1.66 z-score
TTAGGATTGGGGTATCGGTTAGTGCTA: 0.174 z-score
TTAGGTTACGGTCTCGGTTAGTGCTAG: 1.52 z-score
AGAATCTTAGATATTAAACTGTGCTAG: 0.0813 z-score
TCAGTTCTGCTTCTTAGACTGTGCTAG: 1.87 z-score
GACGGACTGGATTTCGGGACGTGCTAG: 0.0335 z-score
TTAGATTTCAGGTTCGATTAGTGCTAG: 1.58 z-score
TTAGATTTCAGACTGGTTTAGTGCTAG: 0.618 z-score
TCAGCTCCCTTTCTCTCACTGTGCTAG: 2.76 z-score
TACGGTTTCCTTTCCCTGACGTGCTAG: 9.76 z-score
GACGGTATGGGTATCGGGACGTGCTAG: 0.0358 z-score
TTAGGACTTGGGTATCGGTTAGTGCTA: 0.178 z-score
TCATTTTTTTTTTTTTGACTGTGCTAG: 1.13 z-score
TTAGTTCTCAGTATCGATTAGTGCTAG: 1.51 z-score
TTAGGTTTCGACTATAGGTTAGTGCTA: 2.23 z-score
TCAAATTTTCAATTCCTACTGTGCTAG: 1 z-score
CAACCAATCATTTTTGCTTAGTGCTAG: 0.964 z-score

Study 6
Target: Transcriptional repressor CTCF (CTCF, Homo sapiens, UniProt P49711, residues 1-727, full length assumed)
Sequence of UniProt P49711 (whole entry, looked up): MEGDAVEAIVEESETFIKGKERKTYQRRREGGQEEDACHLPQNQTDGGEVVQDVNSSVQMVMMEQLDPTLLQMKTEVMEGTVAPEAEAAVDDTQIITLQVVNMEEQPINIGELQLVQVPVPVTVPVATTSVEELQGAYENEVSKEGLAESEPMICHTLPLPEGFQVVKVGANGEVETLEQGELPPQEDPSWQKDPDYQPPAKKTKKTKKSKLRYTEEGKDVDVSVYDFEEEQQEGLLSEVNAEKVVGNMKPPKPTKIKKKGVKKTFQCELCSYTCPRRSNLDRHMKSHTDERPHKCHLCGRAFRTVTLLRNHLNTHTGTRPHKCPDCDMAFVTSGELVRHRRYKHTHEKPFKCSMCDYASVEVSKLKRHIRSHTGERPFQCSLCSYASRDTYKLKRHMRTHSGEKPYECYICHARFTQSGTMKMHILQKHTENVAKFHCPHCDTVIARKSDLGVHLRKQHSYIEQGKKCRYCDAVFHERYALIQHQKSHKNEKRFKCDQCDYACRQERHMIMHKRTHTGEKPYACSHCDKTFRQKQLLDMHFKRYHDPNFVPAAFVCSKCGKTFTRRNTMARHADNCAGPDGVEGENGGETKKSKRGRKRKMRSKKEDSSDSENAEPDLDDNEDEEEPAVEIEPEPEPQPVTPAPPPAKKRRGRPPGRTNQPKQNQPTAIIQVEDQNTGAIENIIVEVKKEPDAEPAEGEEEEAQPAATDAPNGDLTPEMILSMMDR
Technique: protein-binding microarray
Molecule type: double-stranded DNA, one strand shown
Medium: in vitro
Concentration: not given
Notes: k-mer, scored over probes, only values ≥0.25
Direction: higher = stronger binding
Measurement: E-score
ATTACGCA: 0.274
ATATAGCG: 0.274
GCGCTATA: 0.386
AAGTTATG: 0.277
AATACTCA: 0.295
ATACATAT: 0.36
ATATTTGC: 0.293
ATGTCACA: 0.258
AGCGCGTA: 0.335
ACAAATAG: 0.254
ATATTCTA: 0.291
ATTGCACA: 0.259
ATTAATCG: 0.259
TACTACTA: 0.27
CACGCGCC: 0.261
ACACAATA: 0.26
ATTAACTG: 0.269
TCATTAAA: 0.328
CACACGCG: 0.306
GGGGGCGA: 0.316
TATGCATA: 0.327
TAATGATA: 0.276

Excerpt of the above (study 1):
CGGGGTTAAGTTTTTCACGTGCGGTGCTTGCAGCAG: 394 a.u.
ATAGAACGCAGAGCCCACGTGTGCCTGGCACTTGGC: 462 a.u.
GTCTTGTCTCATTGTAATGTGGGTGTCCCCACTTCA: 81.8 a.u.
AGATAGAAGATCAAATCCGTGCCAGAACCGCCCTGC: 66.5 a.u.
ACTGCCATGGGTTTTGGCGTGGGTATGTTCACCTCA: 61.8 a.u.
GTTATAAAAATATGTCAGGTGATTTTTTTTTCTCTT: 2210 a.u.
CTAACGAAGGTTTGGCCGGTGGGTGACAAGCCAAGT: 71.4 a.u.
TTAGAGAATGAAAAGCACGTGGGTACTTCGATTTTG: 1440 a.u.
GCACTTTCAGGTACCAGCGTGCTAAAGCCATTTTCG: 74.7 a.u.
TTGTACATTTTCCATCACGTGCAAAATTTGTTTCAA: 7620 a.u.
ATATTTCCACTTACCCATGTGTTTATAATCGCGGGA: 124 a.u.
TGCGCAACAACTTGACTAGTGGGTGTATGTCTAGAA: 66.2 a.u.
